Assay results from different studies.
Each line is one published result; not all experiments were run side by side. ± gives the spread as reported.
gabR full length assumed: gabR full length assumed (Bacillus subtilis, UniProt P94426)
UniProt P94426, sequence (whole entry, looked up): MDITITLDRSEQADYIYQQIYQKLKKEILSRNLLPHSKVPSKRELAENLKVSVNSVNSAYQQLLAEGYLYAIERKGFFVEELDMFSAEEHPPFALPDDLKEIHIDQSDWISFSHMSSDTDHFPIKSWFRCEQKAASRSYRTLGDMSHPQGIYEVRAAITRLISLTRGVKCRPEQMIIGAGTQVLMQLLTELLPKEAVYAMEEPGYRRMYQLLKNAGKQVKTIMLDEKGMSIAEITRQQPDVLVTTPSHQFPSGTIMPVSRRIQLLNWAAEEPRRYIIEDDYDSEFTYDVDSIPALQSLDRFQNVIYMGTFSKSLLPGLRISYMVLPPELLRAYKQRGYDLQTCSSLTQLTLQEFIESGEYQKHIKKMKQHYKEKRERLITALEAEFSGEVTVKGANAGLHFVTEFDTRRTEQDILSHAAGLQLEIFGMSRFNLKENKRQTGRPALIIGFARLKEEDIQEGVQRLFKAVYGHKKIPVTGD
NAC transcription factor full length assumed: NAC transcription factor full length assumed (Triticum aestivum, UniProt A0A7G7XYH6)
TDG: TDG 1-410 (Homo sapiens, UniProt Q13569)
UniProt Q13569, sequence (whole entry, unmodified, looked up): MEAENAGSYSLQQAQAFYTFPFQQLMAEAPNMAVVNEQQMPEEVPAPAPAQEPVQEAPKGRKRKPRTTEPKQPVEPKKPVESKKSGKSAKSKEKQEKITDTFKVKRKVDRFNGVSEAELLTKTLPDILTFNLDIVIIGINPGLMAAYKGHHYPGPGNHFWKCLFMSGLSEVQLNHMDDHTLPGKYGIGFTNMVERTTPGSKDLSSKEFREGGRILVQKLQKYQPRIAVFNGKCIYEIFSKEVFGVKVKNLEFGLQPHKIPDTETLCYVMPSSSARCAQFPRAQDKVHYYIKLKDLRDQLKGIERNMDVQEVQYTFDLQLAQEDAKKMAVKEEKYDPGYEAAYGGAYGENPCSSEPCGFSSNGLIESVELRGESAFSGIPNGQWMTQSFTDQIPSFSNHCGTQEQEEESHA
DNMT1: DNMT1 1-1616 (Homo sapiens, UniProt P26358)
UniProt P26358, sequence (whole entry, looked up): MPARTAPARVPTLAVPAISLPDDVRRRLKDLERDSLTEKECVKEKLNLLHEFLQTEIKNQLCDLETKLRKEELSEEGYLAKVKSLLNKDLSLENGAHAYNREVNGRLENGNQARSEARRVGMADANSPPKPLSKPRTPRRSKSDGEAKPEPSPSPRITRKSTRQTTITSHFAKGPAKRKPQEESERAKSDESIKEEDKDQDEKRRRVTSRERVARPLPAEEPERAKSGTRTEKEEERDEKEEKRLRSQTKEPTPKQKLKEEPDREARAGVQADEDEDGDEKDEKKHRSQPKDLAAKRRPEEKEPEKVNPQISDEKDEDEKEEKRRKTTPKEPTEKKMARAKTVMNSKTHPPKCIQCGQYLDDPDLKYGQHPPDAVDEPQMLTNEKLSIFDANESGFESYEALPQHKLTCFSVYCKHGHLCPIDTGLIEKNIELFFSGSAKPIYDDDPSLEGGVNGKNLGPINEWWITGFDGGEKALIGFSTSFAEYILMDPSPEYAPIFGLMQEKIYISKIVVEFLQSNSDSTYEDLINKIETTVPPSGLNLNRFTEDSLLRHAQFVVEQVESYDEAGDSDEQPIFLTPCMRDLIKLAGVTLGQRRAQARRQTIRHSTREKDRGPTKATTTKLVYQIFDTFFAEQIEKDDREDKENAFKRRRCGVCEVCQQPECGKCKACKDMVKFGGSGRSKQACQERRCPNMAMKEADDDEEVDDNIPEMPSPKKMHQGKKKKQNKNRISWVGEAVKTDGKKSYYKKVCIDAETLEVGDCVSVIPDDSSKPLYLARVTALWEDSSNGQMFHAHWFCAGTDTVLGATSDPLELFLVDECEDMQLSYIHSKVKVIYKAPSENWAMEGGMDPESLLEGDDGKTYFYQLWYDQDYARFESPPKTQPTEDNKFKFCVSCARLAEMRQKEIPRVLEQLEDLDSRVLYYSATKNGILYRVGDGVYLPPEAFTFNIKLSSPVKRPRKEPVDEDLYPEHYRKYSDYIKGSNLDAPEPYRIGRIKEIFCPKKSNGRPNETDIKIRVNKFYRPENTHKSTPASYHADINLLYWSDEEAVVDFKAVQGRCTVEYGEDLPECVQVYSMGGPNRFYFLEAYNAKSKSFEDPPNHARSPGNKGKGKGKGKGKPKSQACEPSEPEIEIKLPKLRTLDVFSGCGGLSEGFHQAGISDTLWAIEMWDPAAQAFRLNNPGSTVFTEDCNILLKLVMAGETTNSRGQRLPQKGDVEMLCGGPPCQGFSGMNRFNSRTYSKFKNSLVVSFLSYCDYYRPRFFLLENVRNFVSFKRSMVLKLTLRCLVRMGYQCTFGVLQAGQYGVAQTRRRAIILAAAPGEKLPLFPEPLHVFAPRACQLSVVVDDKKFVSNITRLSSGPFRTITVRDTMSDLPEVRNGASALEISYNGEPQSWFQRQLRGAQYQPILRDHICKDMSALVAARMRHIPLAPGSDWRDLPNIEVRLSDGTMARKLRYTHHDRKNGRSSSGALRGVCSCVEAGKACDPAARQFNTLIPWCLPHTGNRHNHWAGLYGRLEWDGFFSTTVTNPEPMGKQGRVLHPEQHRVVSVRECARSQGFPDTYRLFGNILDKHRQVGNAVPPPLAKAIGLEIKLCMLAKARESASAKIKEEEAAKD
T1: cas1/cas2 1-305; 1-94 (Escherichia coli); chain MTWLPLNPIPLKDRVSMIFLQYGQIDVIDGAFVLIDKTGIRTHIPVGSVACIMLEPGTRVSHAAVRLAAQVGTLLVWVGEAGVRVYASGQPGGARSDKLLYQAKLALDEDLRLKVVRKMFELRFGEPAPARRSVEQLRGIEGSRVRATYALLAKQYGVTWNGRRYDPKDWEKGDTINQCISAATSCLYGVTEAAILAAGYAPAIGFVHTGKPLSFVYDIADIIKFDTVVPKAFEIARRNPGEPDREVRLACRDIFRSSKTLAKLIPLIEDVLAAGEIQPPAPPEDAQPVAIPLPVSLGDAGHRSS; chain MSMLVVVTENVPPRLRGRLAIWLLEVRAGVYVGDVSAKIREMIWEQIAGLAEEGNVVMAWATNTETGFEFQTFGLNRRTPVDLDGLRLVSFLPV
UniProt P36873, sequence (whole entry, looked up): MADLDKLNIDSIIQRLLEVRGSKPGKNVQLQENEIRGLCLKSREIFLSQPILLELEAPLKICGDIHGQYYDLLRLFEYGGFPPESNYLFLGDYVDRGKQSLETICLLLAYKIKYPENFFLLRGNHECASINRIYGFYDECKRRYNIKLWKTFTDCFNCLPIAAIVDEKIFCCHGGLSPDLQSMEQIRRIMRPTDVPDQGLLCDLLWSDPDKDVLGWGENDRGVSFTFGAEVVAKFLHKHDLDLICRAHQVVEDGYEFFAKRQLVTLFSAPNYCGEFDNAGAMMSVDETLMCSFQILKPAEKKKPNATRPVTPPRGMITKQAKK
UniProt P49960, sequence (whole entry, looked up): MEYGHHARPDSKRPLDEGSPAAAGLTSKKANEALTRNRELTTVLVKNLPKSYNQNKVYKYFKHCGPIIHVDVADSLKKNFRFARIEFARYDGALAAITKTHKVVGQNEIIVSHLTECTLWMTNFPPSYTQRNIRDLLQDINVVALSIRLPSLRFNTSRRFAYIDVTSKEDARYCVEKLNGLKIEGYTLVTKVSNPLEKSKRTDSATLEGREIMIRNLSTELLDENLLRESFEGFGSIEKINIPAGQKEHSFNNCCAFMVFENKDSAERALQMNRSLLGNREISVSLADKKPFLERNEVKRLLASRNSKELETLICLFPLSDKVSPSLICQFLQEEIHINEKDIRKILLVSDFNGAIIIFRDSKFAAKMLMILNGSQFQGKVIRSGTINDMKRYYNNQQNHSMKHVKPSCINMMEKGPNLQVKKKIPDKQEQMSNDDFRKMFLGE
UniProt Q9NR56, sequence (whole entry, unmodified, looked up): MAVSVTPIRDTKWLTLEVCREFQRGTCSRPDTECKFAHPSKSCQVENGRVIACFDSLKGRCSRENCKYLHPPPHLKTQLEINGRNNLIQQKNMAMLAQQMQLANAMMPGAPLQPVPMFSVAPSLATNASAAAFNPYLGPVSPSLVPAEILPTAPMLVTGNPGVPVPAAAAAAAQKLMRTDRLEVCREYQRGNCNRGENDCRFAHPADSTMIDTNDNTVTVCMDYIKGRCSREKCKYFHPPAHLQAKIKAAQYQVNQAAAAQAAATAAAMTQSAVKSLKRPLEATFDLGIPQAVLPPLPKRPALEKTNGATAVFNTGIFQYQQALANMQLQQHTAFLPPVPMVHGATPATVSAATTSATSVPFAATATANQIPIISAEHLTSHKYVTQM
UniProt P22607, sequence (whole entry, looked up): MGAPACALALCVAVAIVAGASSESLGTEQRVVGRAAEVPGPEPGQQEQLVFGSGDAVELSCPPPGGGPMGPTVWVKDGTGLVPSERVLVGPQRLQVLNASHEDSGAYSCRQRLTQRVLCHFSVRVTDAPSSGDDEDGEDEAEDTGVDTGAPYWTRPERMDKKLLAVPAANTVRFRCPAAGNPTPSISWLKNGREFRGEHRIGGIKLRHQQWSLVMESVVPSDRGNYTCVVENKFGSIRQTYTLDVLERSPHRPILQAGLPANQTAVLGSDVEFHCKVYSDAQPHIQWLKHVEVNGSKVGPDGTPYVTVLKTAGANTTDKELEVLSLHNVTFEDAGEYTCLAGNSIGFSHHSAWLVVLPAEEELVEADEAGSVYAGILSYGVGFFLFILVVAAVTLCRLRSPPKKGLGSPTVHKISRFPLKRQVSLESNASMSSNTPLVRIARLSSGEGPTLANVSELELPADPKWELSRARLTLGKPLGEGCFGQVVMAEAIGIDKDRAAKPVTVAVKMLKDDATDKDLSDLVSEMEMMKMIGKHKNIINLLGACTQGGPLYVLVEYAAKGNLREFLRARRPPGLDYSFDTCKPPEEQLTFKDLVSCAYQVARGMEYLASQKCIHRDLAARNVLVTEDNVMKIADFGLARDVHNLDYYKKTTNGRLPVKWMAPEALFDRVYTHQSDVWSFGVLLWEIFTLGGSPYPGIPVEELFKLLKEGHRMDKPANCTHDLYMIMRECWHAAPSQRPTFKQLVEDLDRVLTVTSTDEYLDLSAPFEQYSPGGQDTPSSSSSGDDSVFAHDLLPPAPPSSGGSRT

Sequence | target | test | test system | conditions | measurement | value
GUUCGCGAAGUAACCCUUCGUGGACAUUUGGUCAAUUUGAAACAAUACAGAGAUGAUCAGCAGUUCCCCUGCAUAAGGAUGAACCGUUUUACAAAGAGAGGUAUUUCGUUUU (structured RNA) | PRP24 1-444 (Saccharomyces cerevisiae, UniProt P49960) | EMSA | folded RNA | Hill coefficient about 0.5 | binding | binds
CTTCTGATACCATCAAAAAGTTATAATTGGTACTTTTCATCATACCAAAGAGAAGTCAGAATGATAAGAAAATACCG (dsDNA (Bacillus subtilis); nicked duplex) | gabR full length assumed | BLI | double-stranded DNA, one strand shown | added: GABA | Kd | 13 ± 0.9 nM
TATATGTTGTTAATATTGCACAGAAACAAGCTGCT (dsDNA) | NAC transcription factor full length assumed | competition EMSA | double-stranded DNA, one strand shown |  | binding | no binding
DNA 1 CCACTGCTCACGTACAGAGCTGT / DNA 2 CAGCTCTGTACGTGAGCAGTGGA (dsDNA; 23 bp duplex) | TDG 111-308 N140A (Homo sapiens, UniProt Q13569) | EMSA | double-stranded DNA |  | binding | no binding
AGGGGGCCGUGGGGUGGGAGCUGGGG (G-quadruplex RNA; G4) | PPP1CC (Homo sapiens, UniProt P36873) | EMSA | folded RNA | 100 nM | binding | binds
CGCGGGGUGGAGCAGCCUGGUAGCUCGUCGGGCUCAUAACCCGAAGAUCGUCGGUUCAAAUCCGGCCCCCGCAACCA (tRNA (Escherichia coli); cloverleaf, unmodified) | trmJ 1-246 R82A (Escherichia coli, UniProt P0AE01) | EMSA | folded RNA | Mg2+ 5 mM, added: sinefungin 500 µM | binding | no binding
DNA 1 GTGTCACCACTGCTCATGTACAGAGCTG / DNA 2 CAGCTCTGTACGTGAGCAGTGGTGACAC (dsDNA; 2'-F-arabino-T mispaired with G, CpG) | TDG | fluorescence anisotropy | double-stranded DNA |  | Kd | 18 ± 3 nM
AGTTGCGTTCGCGTTAGGAAGGTTGCGTTAGCGTTGCTG (ssDNA; single strand, non-G4) | DNMT1 | ELISA | single-stranded DNA |  | binding | no binding
GGGAGUGUGUACGAGGCAUUAGGCCGCCGAUGGUUUUGUGGCCGUUUGAGGUUCCUACGGCGGCUU (structured RNA; 2'-fluoro C/U, 3' inverted dT) | Fgfr3 21-369 (Mus musculus, UniProt Q61851) | bead flow cytometry | folded RNA | 100 nM | binding | binds
CCUCCGCUGC (ssRNA (Homo sapiens)) | MBNL1 1-92 F36A (Homo sapiens, UniProt Q9NR56) | NMR titration | RNA |  | binding | binds
CGCGCGCGCGCGAGCGAGCGG (ssDNA; single strand, non-G4) | DNMT1 | ELISA | single-stranded DNA |  | binding | no binding
TTGTTAACACGTGATTTTGT (dsDNA) | protein (Oryza sativa, UniProt Q7XXC1) | EMSA | double-stranded DNA, one strand shown |  | binding | binds
GTGTCACCACTGCTCACGTACAGAGCTG (dsDNA; fully paired duplex) | TDG | competition | double-stranded DNA, one strand shown |  | Kd | 26 ± 8 nM
CTTCTGATACCATCAAAAAGTTATAATTCCTACTTTTCATCATACCAAAGAGAAGTCAGAATGATAAGAAAATACCG (dsDNA (Bacillus subtilis)) | gabR full length assumed | BLI | double-stranded DNA, one strand shown |  | Kd | 44 ± 21 nM
CCUGUCUCGCUUUUCCCCUCCGCUGCGGCCAC (ssRNA (Homo sapiens); hairpin) | MBNL1 1-255 (Homo sapiens, UniProt Q9NR56) | NMR titration | folded RNA |  | binding | binds
TATATGGGTTTAATATTGACAAGAAACAAGCTGCT (dsDNA) | NAC transcription factor full length assumed | competition EMSA | double-stranded DNA, one strand shown |  | binding | no binding
AGTTGAGGGGACTTTCCCAGGC (dsDNA) | NFKB1 1-433 (Homo sapiens, UniProt P19838) | competition DSE-FRET | double-stranded DNA, one strand shown |  | binding | binds
CCGCCGAUGGUUUUGUGGCCGUUUGAGGUUCCUACGGCGG (structured RNA; hairpin, 2'-fluoro C/U, 3' inverted dT) | FGFR3 23-375 (Homo sapiens, UniProt P22607) | bead flow cytometry | folded RNA | 100 nM | binding | binds
DNA 1 ATTTCAGCTACTCCGATGGCCCATATGCGGATC / DNA 2 CTAGGGCATATGGGCCATCGGAGTAGC (dsDNA) | T1, cas1/cas2 1-305; 1-94 (Escherichia coli) | EMSA | double-stranded DNA | binary complex, partial dissociation | binding | binds

Repeated from above:
Sequence | target | test | test system | conditions | measurement | value
CGCGGGGUGGAGCAGCCUGGUAGCUCGUCGGGCUCAUAACCCGAAGAUCGUCGGUUCAAAUCCGGCCCCCGCAACCA (tRNA (Escherichia coli); cloverleaf, unmodified) | trmJ 1-246 R82A (Escherichia coli, UniProt P0AE01) | EMSA | folded RNA | Mg2+ 5 mM, added: sinefungin 500 µM | binding | no binding
DNA 1 GTGTCACCACTGCTCATGTACAGAGCTG / DNA 2 CAGCTCTGTACGTGAGCAGTGGTGACAC (dsDNA; 2'-F-arabino-T mispaired with G, CpG) | TDG | fluorescence anisotropy | double-stranded DNA |  | Kd | 18 ± 3 nM
AGTTGCGTTCGCGTTAGGAAGGTTGCGTTAGCGTTGCTG (ssDNA; single strand, non-G4) | DNMT1 | ELISA | single-stranded DNA |  | binding | no binding
